Results of several laboratories.
Each line is one published result; not all experiments were run side by side. Values joined by “and” are separate records of one study, mostly repeats; a detail may differ. Numbers after ± are the reported error.
Tmem97: Sigma intracellular receptor 2 (Tmem97, Rattus norvegicus, UniProt Q5U3Y7)
Sequence of UniProt Q5U3Y7 (whole entry, looked up): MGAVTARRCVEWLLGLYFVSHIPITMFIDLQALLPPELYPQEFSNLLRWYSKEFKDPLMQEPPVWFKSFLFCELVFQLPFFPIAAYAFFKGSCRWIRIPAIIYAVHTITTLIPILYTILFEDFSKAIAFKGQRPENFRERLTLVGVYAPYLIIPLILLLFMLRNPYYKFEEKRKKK
MAOB: Amine oxidase [flavin-containing] B (MAOB, Homo sapiens, UniProt P27338)
Sequence of UniProt P27338 (whole entry, looked up): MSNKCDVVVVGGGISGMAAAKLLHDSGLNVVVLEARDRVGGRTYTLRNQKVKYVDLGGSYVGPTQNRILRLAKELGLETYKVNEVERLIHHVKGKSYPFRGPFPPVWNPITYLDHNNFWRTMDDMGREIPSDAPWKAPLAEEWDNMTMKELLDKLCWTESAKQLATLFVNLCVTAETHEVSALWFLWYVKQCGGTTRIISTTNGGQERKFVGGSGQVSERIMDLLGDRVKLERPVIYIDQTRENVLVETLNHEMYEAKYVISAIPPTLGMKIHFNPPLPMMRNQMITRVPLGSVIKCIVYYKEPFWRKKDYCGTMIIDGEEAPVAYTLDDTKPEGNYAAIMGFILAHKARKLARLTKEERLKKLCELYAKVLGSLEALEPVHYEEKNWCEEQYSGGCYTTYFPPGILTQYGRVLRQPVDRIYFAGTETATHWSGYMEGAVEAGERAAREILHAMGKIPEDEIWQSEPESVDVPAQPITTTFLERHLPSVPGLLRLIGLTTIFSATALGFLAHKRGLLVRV
TDP1: Tyrosyl-DNA phosphodiesterase 1 (TDP1, Homo sapiens, UniProt Q9NUW8)
Sequence of UniProt Q9NUW8 (whole entry, looked up): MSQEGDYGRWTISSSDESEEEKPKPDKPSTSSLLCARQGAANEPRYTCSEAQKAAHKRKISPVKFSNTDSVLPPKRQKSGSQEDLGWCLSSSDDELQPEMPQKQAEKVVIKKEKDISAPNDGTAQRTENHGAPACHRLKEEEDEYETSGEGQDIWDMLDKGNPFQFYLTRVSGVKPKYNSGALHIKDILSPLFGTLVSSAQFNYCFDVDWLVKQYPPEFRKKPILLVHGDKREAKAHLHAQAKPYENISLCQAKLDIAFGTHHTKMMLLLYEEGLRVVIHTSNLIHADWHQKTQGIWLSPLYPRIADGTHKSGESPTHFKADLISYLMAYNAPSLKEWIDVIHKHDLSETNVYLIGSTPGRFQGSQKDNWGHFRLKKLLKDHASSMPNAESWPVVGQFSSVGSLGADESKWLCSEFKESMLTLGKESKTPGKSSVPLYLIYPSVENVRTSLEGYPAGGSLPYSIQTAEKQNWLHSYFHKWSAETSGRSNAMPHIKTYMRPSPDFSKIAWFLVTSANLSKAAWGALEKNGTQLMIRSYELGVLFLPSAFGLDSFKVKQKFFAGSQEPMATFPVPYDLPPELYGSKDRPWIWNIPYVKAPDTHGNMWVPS
Sequence of UniProt Q8IAS0 (whole entry, looked up): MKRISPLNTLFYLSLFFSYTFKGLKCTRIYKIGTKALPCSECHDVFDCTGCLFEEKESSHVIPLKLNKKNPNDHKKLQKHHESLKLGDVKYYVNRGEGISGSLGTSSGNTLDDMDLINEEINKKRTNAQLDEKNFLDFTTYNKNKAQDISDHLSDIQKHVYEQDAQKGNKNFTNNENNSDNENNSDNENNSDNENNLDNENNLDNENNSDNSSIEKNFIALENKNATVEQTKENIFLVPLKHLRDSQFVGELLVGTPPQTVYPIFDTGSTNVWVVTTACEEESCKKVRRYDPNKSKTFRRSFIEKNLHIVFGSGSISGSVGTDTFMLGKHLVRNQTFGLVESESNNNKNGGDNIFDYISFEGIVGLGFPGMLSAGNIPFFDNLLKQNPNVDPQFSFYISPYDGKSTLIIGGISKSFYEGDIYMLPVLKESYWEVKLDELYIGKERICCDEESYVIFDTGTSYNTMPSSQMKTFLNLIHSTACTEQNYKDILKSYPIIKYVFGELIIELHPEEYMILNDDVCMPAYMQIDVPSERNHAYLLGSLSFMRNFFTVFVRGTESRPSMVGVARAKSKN
Sequence of UniProt P41145 (whole entry, looked up): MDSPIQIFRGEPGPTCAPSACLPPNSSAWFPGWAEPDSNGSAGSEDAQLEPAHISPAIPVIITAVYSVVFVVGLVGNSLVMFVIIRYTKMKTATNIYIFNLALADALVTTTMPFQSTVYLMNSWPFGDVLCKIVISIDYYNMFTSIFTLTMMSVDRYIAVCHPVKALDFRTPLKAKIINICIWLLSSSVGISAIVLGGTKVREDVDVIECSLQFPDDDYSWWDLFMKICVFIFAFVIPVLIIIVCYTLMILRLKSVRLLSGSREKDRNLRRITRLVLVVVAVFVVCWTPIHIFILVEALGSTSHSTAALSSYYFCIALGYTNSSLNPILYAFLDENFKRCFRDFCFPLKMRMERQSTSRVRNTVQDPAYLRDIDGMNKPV
Sequence of UniProt P11712 (whole entry, looked up): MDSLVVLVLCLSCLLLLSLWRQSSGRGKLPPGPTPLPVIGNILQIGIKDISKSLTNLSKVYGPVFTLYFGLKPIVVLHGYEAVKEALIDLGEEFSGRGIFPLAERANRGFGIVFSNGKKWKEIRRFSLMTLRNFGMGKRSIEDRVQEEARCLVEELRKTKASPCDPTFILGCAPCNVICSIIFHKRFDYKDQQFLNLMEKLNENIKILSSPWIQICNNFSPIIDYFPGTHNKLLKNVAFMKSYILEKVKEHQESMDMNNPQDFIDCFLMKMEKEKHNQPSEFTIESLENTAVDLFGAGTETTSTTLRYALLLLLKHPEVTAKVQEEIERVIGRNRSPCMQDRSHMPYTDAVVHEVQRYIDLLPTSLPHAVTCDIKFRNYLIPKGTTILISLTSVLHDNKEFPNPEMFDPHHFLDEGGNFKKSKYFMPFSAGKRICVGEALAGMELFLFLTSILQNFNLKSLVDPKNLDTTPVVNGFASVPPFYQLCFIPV
Sequence of UniProt P22310 (whole entry, looked up): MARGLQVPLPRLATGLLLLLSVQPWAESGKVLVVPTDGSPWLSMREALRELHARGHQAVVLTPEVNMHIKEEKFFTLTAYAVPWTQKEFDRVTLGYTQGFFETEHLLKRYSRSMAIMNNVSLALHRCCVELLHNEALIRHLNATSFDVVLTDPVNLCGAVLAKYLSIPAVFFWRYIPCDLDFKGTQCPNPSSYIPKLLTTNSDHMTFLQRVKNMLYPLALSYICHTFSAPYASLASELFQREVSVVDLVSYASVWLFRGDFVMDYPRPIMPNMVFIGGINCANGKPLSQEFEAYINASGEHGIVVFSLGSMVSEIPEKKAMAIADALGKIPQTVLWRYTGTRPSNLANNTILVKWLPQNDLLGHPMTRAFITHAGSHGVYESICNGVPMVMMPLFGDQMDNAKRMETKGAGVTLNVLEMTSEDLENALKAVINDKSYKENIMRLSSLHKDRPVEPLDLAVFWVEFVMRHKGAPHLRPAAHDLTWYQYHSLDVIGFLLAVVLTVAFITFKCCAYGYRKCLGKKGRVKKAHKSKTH
Sequence of UniProt P41146 (whole entry, unmodified, looked up): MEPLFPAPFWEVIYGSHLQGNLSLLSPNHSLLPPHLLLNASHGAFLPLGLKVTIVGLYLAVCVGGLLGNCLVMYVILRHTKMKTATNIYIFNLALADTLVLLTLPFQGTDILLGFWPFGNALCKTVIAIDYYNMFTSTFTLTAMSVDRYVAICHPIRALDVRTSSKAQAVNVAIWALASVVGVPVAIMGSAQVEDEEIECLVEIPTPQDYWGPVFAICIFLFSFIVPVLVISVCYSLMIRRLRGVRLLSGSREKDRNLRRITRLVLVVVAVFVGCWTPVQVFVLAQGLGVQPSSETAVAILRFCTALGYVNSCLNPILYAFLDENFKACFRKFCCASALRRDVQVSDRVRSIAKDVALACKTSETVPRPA
Sequence of UniProt P13945 (whole entry, looked up): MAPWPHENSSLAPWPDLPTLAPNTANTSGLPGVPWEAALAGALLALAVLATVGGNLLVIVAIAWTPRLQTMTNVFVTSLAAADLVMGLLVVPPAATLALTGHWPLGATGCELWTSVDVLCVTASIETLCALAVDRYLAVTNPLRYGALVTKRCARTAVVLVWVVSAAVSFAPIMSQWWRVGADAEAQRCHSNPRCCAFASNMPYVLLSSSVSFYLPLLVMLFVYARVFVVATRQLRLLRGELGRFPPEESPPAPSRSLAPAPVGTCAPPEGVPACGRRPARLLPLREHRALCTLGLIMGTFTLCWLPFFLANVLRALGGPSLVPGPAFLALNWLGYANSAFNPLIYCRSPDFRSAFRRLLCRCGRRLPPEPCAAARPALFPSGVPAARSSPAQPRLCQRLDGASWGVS
Sequence of UniProt Q86U44 (whole entry, looked up): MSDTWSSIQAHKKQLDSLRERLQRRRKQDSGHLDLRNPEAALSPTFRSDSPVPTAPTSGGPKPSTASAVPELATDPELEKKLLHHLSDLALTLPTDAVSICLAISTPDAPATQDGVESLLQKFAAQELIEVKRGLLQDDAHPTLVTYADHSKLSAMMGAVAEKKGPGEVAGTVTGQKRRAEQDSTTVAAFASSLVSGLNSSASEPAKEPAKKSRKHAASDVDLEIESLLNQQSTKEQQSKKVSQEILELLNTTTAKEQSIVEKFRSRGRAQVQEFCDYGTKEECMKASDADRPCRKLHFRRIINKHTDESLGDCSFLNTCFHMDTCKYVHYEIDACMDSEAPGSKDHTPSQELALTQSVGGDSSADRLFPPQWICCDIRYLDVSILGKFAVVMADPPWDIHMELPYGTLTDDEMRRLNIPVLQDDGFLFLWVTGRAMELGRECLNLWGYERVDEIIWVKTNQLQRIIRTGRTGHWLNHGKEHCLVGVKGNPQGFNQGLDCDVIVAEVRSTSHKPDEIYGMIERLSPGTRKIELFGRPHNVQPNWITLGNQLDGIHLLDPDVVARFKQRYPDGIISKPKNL

SMILES | target | assay | test system | conditions | quantity | result
COc1ccc2c(c1OC)O[C@H]1c3ccc(O)cc3OC[C@@H]21 | Cytochrome P450 2C9 (CYP2C9, Homo sapiens, UniProt P11712) | enzyme activity, inhibitor | human, liver microsomes | 15 min | Ki | 69600 nM
CN(C)c1nc(NCc2ccc(Oc3ccccc3)cc2)c(/N=N/c2ccc(Cl)cc2)c(N(C)C)n1 | Chitinase (OfChi-h, Ostrinia furnacalis, UniProt Q4AE59) | enzyme activity, inhibitor, fluorescence | – | – | Ki | 43.2 nM
O[C@@H]1Cc2cccc(OCCF)c2C[C@H]1N1CCC(c2ccccc2)CC1 | Tmem97 | radioligand binding | rat liver | added: [3H]DTG, 1 µM dextrallorphan mask | Ki | 2100 ± 1100 nM
CNC(=O)[C@@]12C[C@@H]1[C@@H](n1cnc3c(NCc4cccc(Cl)c4)nc(C#Cc4cccc(Cl)c4)nc31)[C@H](O)[C@@H]2O | OPRK1 (Homo sapiens, UniProt P41145) | cell-free assay | – | – | Ki | > 10000 nM
Cc1ccc(C2CCN(C3Cc4ccccc4CC3O)CC2)cc1 (racemic) | Tmem97 | radioligand binding | rat liver | added: [3H]DTG, 1 µM dextrallorphan mask | Ki | 59 ± 7 nM
C[Se+](CCNc1c(N)c(=O)c1=O)C[C@H]1O[C@@H](n2cnc3c(N)ncnc32)[C@H](O)[C@@H]1O (mixture of isomers) | N6-adenosine-methyltransferase catalytic subunit, with METTL14 (METTL3, Homo sapiens, UniProt Q86U44) | inhibitor | – | – | Ki | 3 nM
O=C(NCCCN1CCC2(CC1)OCc1ccccc12)C1CCCN1Cc1ccccc1 (stereo not drawn) | Nociceptin receptor (OPRL1, Homo sapiens, UniProt P41146, Q280A) | – | – | – | Ki | 28 nM
O=C1c2cc(O)cc(O)c2C(=O)c2c(O)cc(CO)cc21 | MAOB | enzyme activity, inhibitor | – | – | Ki | 14600 nM
O=C(O)c1ccc(Nc2c(-c3ccc(CON=Cc4sccc4-n4cccc4)cc3)nc3cc(-c4ccccc4)ccn23)cc1 (mixture of isomers) | TDP1 | enzyme activity, inhibitor | – | 100 µM, unpurified compound | inhibition | 13.9%
Cn1ccc2c(N3CCN(CCCCOc4ccc5c(c4)NC(=O)CC5)CC3)cccc21 | ADRB3 (Homo sapiens, UniProt P13945) | ligand displacement, radioligand | – | – | Ki | > 10000 nM
CCCC(=O)OC1CCC2(C)C(CCC3(C)C2CC=C2C4C(C)C(C)CCC4(C(=O)O)CCC23C)C1(C)C (stereo not drawn) | UGT1A4 (Homo sapiens, UniProt P22310) | enzyme activity, inhibitor | human, liver microsomes | – | Ki | 606 nM
Cc1cc(O)c2c(c1)C(=O)c1cc(O)c(O)c(O)c1C2=O | MAOB | enzyme activity, inhibitor | – | – | Ki | 50200 nM
Cc1nn2c(C(F)(F)F)ccnc2c1C=NOCc1ccc2nc(-c3ccccc3)c(Nc3ccc(C(=O)O)cc3)n2c1 (mixture of isomers) | TDP1 | enzyme activity, inhibitor | – | 100 µM, unpurified compound | inhibition | -28.5%
CN1CC[C@@H](COc2cnc(C#N)cc2-c2ccn3nc(NC(=O)C4CC4)cc3c2)C1 | RIPK2 (Homo sapiens, UniProt O43353) | enzyme activity, inhibitor | – | – | Ki | 380 nM
CCC1(CC)CC(=O)N(C2c3cc(C(=O)NC4c5ccccc5CC4O)ccc3OC2(C)COC)C(=N)N1 (stereo not drawn) | Plasmepsin X (Plasmodium falciparum, UniProt Q8IAS0) | enzyme activity, inhibitor | – | – | Ki | 0.132 nM and 0.13 nM

For quick reference, copied from above:
SMILES | target | assay | test system | conditions | quantity | result
O=C1c2cc(O)cc(O)c2C(=O)c2c(O)cc(CO)cc21 | MAOB | enzyme activity, inhibitor | – | – | Ki | 14600 nM
CCCC(=O)OC1CCC2(C)C(CCC3(C)C2CC=C2C4C(C)C(C)CCC4(C(=O)O)CCC23C)C1(C)C (stereo not drawn) | UGT1A4 (Homo sapiens, UniProt P22310) | enzyme activity, inhibitor | human, liver microsomes | – | Ki | 606 nM
